Measurements pooled from the literature.
Compare with care: the assays were run in different laboratories. pIC50: −log10 of the molar value.
Sequence of UniProt P19525 (whole entry, looked up): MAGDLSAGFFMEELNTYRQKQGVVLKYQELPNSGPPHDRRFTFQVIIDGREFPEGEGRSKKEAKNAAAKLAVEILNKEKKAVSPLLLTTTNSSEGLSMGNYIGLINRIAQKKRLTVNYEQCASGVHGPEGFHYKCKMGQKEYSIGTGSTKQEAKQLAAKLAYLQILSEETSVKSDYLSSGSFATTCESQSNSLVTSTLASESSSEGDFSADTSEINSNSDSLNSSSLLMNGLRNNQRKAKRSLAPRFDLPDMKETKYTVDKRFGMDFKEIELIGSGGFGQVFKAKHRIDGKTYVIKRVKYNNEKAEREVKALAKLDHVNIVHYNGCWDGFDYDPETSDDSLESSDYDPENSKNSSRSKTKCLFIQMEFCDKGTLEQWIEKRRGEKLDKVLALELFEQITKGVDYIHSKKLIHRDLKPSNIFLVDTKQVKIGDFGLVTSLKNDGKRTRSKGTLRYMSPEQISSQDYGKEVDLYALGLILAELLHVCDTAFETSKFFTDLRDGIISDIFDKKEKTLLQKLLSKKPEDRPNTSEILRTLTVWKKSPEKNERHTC
Sequence of UniProt O33336 (whole entry, looked up): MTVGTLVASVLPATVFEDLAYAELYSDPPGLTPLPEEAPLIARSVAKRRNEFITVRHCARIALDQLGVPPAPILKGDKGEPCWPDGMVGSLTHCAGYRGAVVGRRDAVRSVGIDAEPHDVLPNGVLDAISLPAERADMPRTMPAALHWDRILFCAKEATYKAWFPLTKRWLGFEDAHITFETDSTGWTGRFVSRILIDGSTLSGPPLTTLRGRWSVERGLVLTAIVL
Sequence of UniProt Q6ZN16 (whole entry, looked up): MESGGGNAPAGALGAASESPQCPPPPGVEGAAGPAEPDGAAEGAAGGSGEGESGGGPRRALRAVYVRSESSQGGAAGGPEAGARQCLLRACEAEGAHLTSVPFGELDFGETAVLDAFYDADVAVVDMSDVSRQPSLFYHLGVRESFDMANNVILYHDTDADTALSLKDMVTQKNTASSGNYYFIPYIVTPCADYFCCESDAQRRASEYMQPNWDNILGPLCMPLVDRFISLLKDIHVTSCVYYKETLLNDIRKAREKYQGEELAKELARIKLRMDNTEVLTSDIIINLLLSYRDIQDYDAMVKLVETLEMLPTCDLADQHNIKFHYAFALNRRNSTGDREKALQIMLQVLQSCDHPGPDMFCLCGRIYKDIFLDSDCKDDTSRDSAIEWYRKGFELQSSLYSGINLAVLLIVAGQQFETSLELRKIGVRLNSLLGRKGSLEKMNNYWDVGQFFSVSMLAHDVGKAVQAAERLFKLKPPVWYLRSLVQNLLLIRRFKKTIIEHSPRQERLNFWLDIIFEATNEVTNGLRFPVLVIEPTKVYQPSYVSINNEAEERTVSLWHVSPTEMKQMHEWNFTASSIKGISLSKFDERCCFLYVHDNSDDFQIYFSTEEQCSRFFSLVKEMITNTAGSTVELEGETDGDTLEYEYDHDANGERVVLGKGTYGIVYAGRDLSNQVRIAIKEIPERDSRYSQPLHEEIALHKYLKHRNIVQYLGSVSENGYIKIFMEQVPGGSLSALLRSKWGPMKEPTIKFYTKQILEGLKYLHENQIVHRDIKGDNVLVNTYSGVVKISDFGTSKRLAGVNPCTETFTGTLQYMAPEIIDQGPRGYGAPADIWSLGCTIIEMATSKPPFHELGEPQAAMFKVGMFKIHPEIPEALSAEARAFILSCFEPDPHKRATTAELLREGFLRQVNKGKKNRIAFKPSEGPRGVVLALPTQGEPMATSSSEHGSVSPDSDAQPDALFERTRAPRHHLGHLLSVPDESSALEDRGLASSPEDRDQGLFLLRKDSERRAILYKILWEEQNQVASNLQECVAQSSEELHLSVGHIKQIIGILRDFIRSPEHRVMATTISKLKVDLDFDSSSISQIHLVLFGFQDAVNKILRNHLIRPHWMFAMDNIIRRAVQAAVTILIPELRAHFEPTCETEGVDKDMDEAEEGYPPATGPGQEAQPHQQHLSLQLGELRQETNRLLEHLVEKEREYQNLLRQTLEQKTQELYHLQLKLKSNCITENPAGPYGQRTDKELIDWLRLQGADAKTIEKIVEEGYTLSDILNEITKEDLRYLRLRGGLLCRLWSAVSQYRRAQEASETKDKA
Sequence of UniProt O76039 (whole entry, looked up): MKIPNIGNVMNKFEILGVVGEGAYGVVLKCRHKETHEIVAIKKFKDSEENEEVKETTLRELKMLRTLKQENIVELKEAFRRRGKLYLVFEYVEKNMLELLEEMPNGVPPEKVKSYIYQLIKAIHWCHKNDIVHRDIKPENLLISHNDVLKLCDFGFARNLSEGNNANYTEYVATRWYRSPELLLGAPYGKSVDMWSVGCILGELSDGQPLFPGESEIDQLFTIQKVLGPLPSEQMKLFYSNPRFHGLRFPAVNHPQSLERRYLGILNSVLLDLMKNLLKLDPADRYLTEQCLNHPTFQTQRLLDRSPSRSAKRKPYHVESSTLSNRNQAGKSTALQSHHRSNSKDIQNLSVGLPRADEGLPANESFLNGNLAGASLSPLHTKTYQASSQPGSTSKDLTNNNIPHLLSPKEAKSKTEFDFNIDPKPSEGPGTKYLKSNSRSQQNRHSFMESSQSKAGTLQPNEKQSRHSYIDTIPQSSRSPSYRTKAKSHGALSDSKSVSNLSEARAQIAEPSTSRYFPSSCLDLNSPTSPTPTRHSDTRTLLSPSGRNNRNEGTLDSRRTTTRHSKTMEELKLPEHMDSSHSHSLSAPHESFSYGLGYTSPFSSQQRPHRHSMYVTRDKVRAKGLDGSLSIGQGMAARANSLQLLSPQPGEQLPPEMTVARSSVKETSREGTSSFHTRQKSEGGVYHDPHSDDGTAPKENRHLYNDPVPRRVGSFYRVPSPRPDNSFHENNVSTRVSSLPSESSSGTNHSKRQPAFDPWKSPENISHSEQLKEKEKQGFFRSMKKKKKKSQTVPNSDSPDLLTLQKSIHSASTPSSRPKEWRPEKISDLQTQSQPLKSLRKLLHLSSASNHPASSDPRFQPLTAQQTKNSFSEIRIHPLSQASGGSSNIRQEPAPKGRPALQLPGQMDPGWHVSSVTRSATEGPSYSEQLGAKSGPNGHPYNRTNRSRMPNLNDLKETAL
Sequence of UniProt O15146 (whole entry, looked up): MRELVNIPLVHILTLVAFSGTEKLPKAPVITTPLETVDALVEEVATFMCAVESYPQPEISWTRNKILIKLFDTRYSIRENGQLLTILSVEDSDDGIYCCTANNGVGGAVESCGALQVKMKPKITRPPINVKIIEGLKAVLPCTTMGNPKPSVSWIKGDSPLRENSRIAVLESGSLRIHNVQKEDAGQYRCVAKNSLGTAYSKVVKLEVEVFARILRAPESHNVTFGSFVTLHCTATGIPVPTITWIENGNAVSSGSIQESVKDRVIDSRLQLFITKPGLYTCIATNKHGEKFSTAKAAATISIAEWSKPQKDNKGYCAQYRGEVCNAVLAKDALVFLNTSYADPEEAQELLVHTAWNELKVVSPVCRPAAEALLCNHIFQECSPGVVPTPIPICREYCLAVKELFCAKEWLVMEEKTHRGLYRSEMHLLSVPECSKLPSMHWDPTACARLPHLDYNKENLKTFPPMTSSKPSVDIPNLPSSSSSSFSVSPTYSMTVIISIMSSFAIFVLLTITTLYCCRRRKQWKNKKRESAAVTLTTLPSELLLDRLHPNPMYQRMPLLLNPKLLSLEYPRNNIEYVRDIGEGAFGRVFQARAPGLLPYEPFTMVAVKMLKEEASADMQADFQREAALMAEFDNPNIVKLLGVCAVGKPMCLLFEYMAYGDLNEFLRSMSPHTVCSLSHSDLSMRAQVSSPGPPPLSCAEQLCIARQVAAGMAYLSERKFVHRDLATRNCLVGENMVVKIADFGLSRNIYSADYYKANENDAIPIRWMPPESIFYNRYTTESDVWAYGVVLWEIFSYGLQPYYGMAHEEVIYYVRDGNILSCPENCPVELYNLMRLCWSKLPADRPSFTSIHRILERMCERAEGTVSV

`N.N.[Cl][Pt][Cl]` gave a pIC50 of 5.36 (WSUDLCL2; cell growth or viability, ATP luminescence; 72 h).
`[2H]c1c([2H])c([C@]2([2H])CCCN2C(=O)C(C)(C)Oc2ccc3cn[nH]c3c2)c([2H])c([2H])c1C([2H])([2H])[2H]` gave a remaining binding of 67% (MAP3K15 (Homo sapiens, UniProt Q6ZN16); binding, competition with immobilised ligand; 1 µM).
`COc1ccc(Nc2nn3c(-c4ccccc4)ccnc3c2C(=O)Nc2ccc(Cl)cc2)cc1` has a viability of 12.7% (Caco-2; cell growth or viability, MTT; 100 µg/mL, 48 h, serum-free).
For `N#C[Se]CCCCOc1ccc2c(-c3ccccc3)cc(=O)oc2c1`, the GI50 was 28 µM (MIA PaCa-2; cell growth or viability, SRB).
`COc1ncccc1-c1cnn2ccc(N3CCN(C(=O)OC(C)C)CC3)nc12` has a remaining binding of 94% (CDKL5 (Homo sapiens, UniProt O76039); binding, competition with immobilised ligand; 1 µM).
`CCOC(=O)C1=C(N)N(c2ccc(C(=O)OCC)cc2)C(O)=C(C#N)C12C(=O)Nc1ccccc12` (stereo not shown) gave a viability of 16.1% (HepG2; cell growth or viability, MTT; 50 µM, 24 h).
With `COc1ccc(-c2cc(C(F)(F)F)c3c(N)c(C(=O)Nc4cccc(C)c4OC)sc3n2)cc1` the pIC50 was < 4.00 (HepG2; cell growth or viability; 72 h).
The viability of `CN(C)c1ccc(C(=O)NCCCCCCC(=O)NO)cc1` is reported as 30.3% (OCI-Ly1; cell growth or viability, ATP luminescence; 1 µM, 5 days).
`N#Cc1cc2c(=O)n(Cc3cccnc3)c(=S)[nH]c2cn1` has a pIC50 of 5.21 (4'-phosphopantetheinyl transferase PptT (Mycobacterium tuberculosis, UniProt O33336); enzyme activity, inhibitor, FP).
For `Cc1nn(C)cc1-c1nc2c(N3CCN(Cc4ccc(Cl)cc4)CC3)c(Cl)cnc2[nH]1`, the remaining binding was 100% (MUSK (Homo sapiens, UniProt O15146); binding, competition with immobilised ligand; 1 µM).
With `N#C[Se]Cc1cc(=O)oc2cc(O)ccc12` the GI50 was 19 µM (MIA PaCa-2; cell growth or viability, SRB).
For `Nc1ncc(-c2nc(N3CCOCC3)nc(N3CCOCC3)n2)c(C(F)F)n1`, the remaining binding was 91% (EIF2AK2 (Homo sapiens, UniProt P19525); binding, competition with immobilised ligand; 10 µM).
`COc1cc(C(=O)c2nc(-c3ccc4[nH]ccc4c3)c[nH]2)cc(OC)c1OC` gave a pIC50 of 7.62 (M14; cell growth or viability, MTS; 72 h).
The viability of `COc1ccc(Nc2nn3c(-c4ccccc4)ccnc3c2C(=O)Nc2ccccc2)cc1` is reported as 34.5% (Caco-2; cell growth or viability, MTT; 50 µg/mL, 48 h, serum-free).
For `Cc1ccc(NC(=O)c2ccc(CN3CCN(C)CC3)cc2)cc1Nc1nccc(-c2cccnc2)n1`, the viability was 23.9% (K562; cell growth or viability, MTT; 20 µM).
`Cc1c(Cl)c(=O)oc2cc(OCCCC[Se]C#N)ccc12` has a GI50 of 12 µM (T47D; cell growth or viability, SRB).

For quick reference, copied from above:
`N#Cc1cc2c(=O)n(Cc3cccnc3)c(=S)[nH]c2cn1` has a pIC50 of 5.21 (4'-phosphopantetheinyl transferase PptT (Mycobacterium tuberculosis, UniProt O33336); enzyme activity, inhibitor, FP).
For `Cc1nn(C)cc1-c1nc2c(N3CCN(Cc4ccc(Cl)cc4)CC3)c(Cl)cnc2[nH]1`, the remaining binding was 100% (MUSK (Homo sapiens, UniProt O15146); binding, competition with immobilised ligand; 1 µM).
